Experimental data of several laboratories.
Numbered parts are unrelated; each lists some results of a single study.
Chain of UniProt Q13177 (whole entry, looked up): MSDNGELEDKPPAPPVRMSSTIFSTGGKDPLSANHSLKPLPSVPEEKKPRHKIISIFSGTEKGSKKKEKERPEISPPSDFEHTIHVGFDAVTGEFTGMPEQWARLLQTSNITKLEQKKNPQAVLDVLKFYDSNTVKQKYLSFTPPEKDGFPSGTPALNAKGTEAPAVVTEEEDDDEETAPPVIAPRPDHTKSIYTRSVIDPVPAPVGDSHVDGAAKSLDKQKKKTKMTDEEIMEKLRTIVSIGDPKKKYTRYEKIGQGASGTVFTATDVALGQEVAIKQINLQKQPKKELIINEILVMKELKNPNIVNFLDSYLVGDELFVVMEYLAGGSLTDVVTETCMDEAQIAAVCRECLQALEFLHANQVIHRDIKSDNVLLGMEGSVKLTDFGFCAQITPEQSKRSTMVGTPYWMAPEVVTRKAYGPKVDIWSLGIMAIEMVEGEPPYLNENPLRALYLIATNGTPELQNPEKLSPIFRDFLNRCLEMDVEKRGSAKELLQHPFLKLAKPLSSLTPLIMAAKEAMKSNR
Chain of UniProt P00519 (whole entry, unmodified, looked up): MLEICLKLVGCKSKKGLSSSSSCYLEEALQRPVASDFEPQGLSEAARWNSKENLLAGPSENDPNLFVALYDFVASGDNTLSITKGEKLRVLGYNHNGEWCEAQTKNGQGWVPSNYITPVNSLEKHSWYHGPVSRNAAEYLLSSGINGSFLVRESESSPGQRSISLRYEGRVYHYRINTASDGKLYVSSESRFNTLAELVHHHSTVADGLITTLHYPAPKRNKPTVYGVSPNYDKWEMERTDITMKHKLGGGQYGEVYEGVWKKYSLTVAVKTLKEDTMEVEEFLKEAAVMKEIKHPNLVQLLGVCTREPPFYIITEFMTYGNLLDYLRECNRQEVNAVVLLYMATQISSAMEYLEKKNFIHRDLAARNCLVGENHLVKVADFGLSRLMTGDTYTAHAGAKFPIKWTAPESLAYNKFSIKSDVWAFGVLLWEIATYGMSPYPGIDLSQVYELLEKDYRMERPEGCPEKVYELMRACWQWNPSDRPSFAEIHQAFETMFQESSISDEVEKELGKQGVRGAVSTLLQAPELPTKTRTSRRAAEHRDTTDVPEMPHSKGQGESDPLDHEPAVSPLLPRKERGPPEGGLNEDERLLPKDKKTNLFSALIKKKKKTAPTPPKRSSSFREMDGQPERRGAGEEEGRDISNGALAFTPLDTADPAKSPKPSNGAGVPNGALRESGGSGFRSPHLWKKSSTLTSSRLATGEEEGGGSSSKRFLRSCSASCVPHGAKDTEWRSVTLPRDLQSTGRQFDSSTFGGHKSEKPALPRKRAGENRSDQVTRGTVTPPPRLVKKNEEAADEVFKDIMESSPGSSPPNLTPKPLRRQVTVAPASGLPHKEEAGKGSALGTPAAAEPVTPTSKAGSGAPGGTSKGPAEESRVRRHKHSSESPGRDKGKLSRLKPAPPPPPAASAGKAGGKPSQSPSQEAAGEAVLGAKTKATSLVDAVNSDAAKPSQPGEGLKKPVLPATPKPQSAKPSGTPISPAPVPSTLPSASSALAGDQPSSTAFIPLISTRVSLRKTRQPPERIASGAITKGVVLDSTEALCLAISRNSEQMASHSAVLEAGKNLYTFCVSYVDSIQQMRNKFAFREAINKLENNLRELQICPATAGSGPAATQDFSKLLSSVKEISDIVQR
Chain of UniProt P25098 (whole entry, looked up): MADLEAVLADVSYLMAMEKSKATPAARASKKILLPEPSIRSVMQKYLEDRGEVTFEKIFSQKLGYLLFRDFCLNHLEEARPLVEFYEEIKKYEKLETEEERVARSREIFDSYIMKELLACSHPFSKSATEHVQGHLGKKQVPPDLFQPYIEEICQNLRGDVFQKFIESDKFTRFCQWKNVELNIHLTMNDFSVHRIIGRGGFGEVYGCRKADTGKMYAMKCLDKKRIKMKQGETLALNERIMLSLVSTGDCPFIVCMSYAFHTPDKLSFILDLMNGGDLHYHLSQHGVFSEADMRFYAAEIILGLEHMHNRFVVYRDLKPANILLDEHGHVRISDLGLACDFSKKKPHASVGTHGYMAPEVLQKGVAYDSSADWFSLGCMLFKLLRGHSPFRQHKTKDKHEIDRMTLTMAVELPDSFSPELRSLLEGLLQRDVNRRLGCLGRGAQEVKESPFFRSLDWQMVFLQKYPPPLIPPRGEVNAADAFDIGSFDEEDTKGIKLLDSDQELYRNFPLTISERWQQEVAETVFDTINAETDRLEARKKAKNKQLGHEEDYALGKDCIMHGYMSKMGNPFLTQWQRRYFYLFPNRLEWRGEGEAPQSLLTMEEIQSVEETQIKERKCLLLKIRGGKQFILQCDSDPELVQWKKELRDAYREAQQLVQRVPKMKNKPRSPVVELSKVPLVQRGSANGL
Chain of UniProt Q15746 (whole entry, looked up): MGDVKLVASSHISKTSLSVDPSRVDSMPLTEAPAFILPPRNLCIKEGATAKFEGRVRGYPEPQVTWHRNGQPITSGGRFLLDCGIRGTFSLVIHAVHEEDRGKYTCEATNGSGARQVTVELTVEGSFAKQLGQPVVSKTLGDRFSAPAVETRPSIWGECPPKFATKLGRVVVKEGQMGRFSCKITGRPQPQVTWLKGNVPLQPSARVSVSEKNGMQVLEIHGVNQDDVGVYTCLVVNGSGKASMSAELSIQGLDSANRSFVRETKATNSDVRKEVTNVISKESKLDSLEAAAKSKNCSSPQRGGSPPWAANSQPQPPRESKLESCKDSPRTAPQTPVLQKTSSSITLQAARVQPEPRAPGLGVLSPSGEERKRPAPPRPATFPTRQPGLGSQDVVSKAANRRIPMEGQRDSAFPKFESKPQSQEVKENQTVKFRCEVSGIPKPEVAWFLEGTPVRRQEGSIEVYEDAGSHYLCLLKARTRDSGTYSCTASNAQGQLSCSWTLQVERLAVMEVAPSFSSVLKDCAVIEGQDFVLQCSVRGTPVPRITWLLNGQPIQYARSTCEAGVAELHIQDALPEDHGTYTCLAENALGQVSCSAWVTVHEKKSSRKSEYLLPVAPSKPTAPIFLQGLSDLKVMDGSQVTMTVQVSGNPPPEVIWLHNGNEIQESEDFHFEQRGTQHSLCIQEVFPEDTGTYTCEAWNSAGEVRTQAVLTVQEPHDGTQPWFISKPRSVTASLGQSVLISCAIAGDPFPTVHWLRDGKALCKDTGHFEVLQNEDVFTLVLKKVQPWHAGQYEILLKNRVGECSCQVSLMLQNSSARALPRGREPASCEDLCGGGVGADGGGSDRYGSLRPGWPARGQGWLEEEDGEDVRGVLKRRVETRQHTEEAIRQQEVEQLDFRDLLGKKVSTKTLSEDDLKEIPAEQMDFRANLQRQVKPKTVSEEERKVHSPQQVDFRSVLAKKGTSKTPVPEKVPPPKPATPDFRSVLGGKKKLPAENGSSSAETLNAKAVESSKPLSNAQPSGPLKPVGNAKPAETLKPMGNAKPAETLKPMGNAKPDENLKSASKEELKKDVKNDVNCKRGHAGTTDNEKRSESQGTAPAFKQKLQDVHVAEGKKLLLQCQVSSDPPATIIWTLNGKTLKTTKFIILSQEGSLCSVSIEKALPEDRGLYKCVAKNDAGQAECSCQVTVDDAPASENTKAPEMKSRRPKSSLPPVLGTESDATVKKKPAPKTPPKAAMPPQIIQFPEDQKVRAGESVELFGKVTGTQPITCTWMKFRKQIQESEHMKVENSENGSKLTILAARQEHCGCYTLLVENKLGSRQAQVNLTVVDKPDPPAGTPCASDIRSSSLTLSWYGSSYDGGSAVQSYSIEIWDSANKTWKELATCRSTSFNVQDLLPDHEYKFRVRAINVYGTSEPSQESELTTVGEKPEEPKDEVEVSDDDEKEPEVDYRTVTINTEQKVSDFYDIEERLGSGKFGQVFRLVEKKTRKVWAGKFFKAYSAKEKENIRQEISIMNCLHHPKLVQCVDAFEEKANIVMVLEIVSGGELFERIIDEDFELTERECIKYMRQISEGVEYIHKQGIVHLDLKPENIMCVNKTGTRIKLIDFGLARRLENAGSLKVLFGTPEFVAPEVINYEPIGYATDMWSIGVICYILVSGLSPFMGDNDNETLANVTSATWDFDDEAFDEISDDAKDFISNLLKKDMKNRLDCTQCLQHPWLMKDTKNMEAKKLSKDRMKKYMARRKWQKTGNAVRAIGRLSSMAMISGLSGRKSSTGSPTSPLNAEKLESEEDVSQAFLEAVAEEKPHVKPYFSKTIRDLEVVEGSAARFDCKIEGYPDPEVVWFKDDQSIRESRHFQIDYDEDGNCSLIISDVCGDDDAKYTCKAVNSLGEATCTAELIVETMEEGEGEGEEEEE
Chain of UniProt P16257 (whole entry, looked up): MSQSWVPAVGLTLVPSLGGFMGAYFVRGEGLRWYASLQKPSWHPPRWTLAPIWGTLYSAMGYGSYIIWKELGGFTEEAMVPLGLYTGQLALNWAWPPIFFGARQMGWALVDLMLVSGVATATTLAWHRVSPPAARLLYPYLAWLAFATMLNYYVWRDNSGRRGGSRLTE

Series 1
Target: Calcium/calmodulin-dependent protein kinase type II subunit alpha (CAMK2A, Homo sapiens, UniProt Q9UQM7)
Chain of UniProt Q9UQM7 (whole entry, looked up): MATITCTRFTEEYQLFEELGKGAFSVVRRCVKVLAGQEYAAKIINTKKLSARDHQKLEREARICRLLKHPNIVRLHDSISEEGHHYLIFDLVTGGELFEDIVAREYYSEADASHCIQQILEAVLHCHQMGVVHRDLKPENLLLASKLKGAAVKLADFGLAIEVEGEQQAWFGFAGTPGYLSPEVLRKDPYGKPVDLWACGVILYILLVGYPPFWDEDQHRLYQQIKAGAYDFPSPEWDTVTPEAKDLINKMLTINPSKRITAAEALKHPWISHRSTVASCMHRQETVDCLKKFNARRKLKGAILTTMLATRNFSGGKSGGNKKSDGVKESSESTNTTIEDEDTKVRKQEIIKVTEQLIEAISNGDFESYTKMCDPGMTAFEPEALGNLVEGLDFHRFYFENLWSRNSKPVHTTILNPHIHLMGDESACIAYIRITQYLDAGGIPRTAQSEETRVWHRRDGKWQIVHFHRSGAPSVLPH
Read-out: enzyme activity
Mode: inhibitor
Concentration: 10 µM
Quantity: inhibition
COc1cc2cc(c1Cl)N(C)C(=O)C[C@H](O)[C@]1(C)O[C@H]1[C@H](C)[C@@H]1C[C@@](O)(NC(=O)O1)[C@H](OC)/C=C/C=C(\C)C2: -21%
O=C1c2ccccc2-n2c1nc1ccccc1c2=O: -26%
CCCCCCCCCCC[C@@H](C[C@@H]1OC(=O)[C@H]1CCCCCC)OC(=O)[C@H](CC(C)C)NC=O: -3%
CC(=O)O[C@H]1[C@H]2[C@H]([C@@H]3[C@H]4OC(=O)[C@@](C)(O)[C@@]5(C)C(=O)C[C@@H](C)[C@@H]([C@@H]45)[C@@]3(C)[C@H]1OC(C)=O)[C@@H](OC(C)=O)C(=O)[C@H]1C[C@@H]3O[C@@H]3[C@H](OC(C)=O)[C@]21C: -59%
Cn1c(Cc2ccccc2)nc(=O)c2ccccc21: -26%
CC(=O)OC/C1=C/C[C@H]2[C@@H](/C=C(\C)C(=O)[C@@]3(OC(C)=O)C[C@H](C)[C@H](OC(=O)c4ccccc4)[C@@H]3[C@H]1OC(C)=O)C2(C)C: -119%
CC(CN)C(=O)O (stereo not shown): 13%
CN(C)CCC(c1ccc(Br)cc1)c1ccccn1 (stereo not shown): -1%
CC(=O)c1ccc(C)cc1C: 5%
O=C(O)CN(CCN(CC(=O)O)CC(=O)O)CCN(CC(=O)O)CC(=O)O: 9%
CN(C)[C@@H]1C(O)=C(C(N)=O)C(=O)[C@@]2(O)C(O)=C3C(=O)c4c(O)ccc(Cl)c4[C@@](C)(O)[C@H]3C[C@@H]12: 25%
O=C(O)c1ccccc1C(=O)O: -1%
C=C1C(=O)O[C@@H]2[C@H]3C(CO)=CC(=O)C3=C(C)C[C@H](OC(=O)Cc3ccc(O)cc3)[C@@H]12: 11%

Series 2
Structure (SMILES): O=C1Nc2ccc(Br)cc2/C1=C/c1cc2c([nH]1)CCCC2
Read-out: enzyme activity
Mode: inhibitor
Concentration: 0.5 µM
Relative to: control
Quantity: remaining activity
GRK2 (Homo sapiens, UniProt P25098): 105%
EPHA7 (Homo sapiens, UniProt Q15375): 85.3%
PRKCG (Homo sapiens, UniProt P05129): 100%
CSK (Homo sapiens, UniProt P41240): 98.5%
RPS6KA1 (Homo sapiens, UniProt Q15418): 70.4%
EPHB2 (Homo sapiens, UniProt P29323): 85.4%
PAK2 (Homo sapiens, UniProt Q13177): 90%
GRK6 (Homo sapiens, UniProt P43250): 95.8%
CSF1R (Homo sapiens, UniProt P07333): 49.7%
SRPK3 (Homo sapiens, UniProt Q9UPE1): 77.8%
NUAK1 (Homo sapiens, UniProt O60285): 27.7%
BMX (Homo sapiens, UniProt P51813): 89.9%
RPS6KB1 (Homo sapiens, UniProt P23443): 91.9%
Aurora kinase C (AURKC, Homo sapiens, UniProt Q9UQB9): 86.3%
FLT3 (Homo sapiens, UniProt P36888): 3.86%
FGFR4 (Homo sapiens, UniProt P22455): 77%
PRKCE (Homo sapiens, UniProt Q02156): 99.1%
PIM2 (Homo sapiens, UniProt Q9P1W9): 100%
GSK3A (Homo sapiens, UniProt P49840): 88.5%
MYLK (Homo sapiens, UniProt Q15746): 95.7%
SGK1 (Homo sapiens, UniProt O00141): 93.4%

Series 3
Compound: CC(C)n1cnc(-c2ccc(F)cc2)c1-c1ncc(C(=O)Nc2ccc(N3CCN(C)CC3)cc2)[nH]1
Technique: phase 2a trial
Species: idiopathic pulmonary fibrosis patients
Quantity: patients with AST increased
60 mg once daily, adverse event grade 4: 0%
dose not given, grade 3, arms pooled: 1%
30 mg once daily, adverse event grade 5: 0%
60 mg once daily, adverse event grade 3: 0%
30 mg once daily, adverse event grade 4: 0%
dose not given, grade 1, arms pooled: 2%
30 mg once daily, adverse event grade 2: 0%
60 mg once daily, adverse event grade 1: 1%
60 mg once daily, adverse event grade 5: 0%
dose not given, grade 2, arms pooled: 1%

Single results of other studies
O=C(Nc1cccnn1)N1CC(CC=Cc2cncc(Oc3ccc(C(F)(F)F)cn3)n2)C1 — remaining binding (ABL1 (Homo sapiens, UniProt P00519, F317I); KINOMEscan; 1 µM, F317I mutant, phosphorylated; relative to: control): 67%
CN(C)[C@H]1CCN(c2cc(-c3ccccc3)nc3ccnn23)C1 — inhibition (Tspo (Rattus norvegicus, UniProt P16257); binding, radioligand binding; 10 µM): -12.5%

Repeated from above (series 2):
EPHB2 (Homo sapiens, UniProt P29323): 85.4%
PRKCG (Homo sapiens, UniProt P05129): 100%
